Measured values gathered from unrelated publications.
Compare with care: the assays were run in different laboratories.

| SMILES | tested on | assay | system | setting | endpoint | value |
| --- | --- | --- | --- | --- | --- | --- |
| N#C/C(=C\c1ccc(O)cc1)C(=O)O | human coronavirus OC43 | virus-induced cell killing | MRC-5 | screen | maximum inhibition | 21.2% |
| C[C@@H]1OC(=O)NN=C1c1ccc(-c2ccc(F)cc2)c(C(F)(F)F)c1 | – | – | patients, phase I trial | oral, dose not given, all arms, any grade TEAE | patients with AST increased | 20% |
| CCN(CCO)CCCC(C)Nc1ccnc2cc(Cl)ccc12 (stereo not shown) | – | item: Nausea grade 1 | newly diagnosed glioblastoma patients | oral, 400 mg/dose, with radiotherapy and temozolomide | patients with adverse event | 33% |
| CO[C@H]1C[C@@H]2CC[C@@H](C)[C@@](O)(O2)C(=O)C(=O)N2CCCC[C@H]2C(=O)O[C@H]([C@H](C)C[C@@H]2CC[C@@H](OC(=O)NCCOCCOCCOCCOCCOCCOCCOCCOCCC(=O)N3CCc4cc(Cn5nc(-c6ccc7oc(N)nc7c6)c6c(N)ncnc65)ccc4C3)[C@H](OC)C2)C[C@@H](O)[C@H](C)/C=C(\C)[C@@H](O)[C@@H](OC)C(=O)[C@H](C)C[C@H](C)/C=C/C=C/C=C/1C | – | item: treatment-emergent AEs | patients with advanced solid tumours | intravenous, 1.6 mg/3 mg, any grade, weekly | patients with AE | 0% |
| COc1c(OCCCN2CCOCC2)ccc2c1N=C(NC(=O)c1cnc(N)nc1)N1CCN=C21 | – | item: Nausea | patients with advanced malignancies | intravenous, dose not given, any grade, all cohorts, with: gemcitabine | patients with adverse event | 86% |
| CC(c1cc2ccccc2s1)N(O)C(N)=O (stereo not shown) | human coronavirus OC43 | virus-induced cell killing | MRC-5 | maximum over 10 doses | maximum inhibition | 0% |
| N[C@@H]1c2ccccc2OC12CCN(c1cnc3c(N4CCCc5ncccc54)n[nH]c3n1)CC2 | – | – | advanced solid tumour patients | oral, 60 mg once daily | patients with any TEAE | 100% |
| C=CCNc1c(O)cc2c(O)c1C[C@@H](C)C[C@H](OC)[C@H](O)[C@@H](C)/C=C(\C)[C@H](OC(N)=O)[C@@H](OC)/C=C\C=C(/C)C(=O)N2 | – | – | unresectable or metastatic STS, GIST, other | intravenous, 225 mg/m^2 | patients with arthralgia TEAE | 33% |
| CC(=O)c1c(C)c2cnc(Nc3ccc(C4CCN(CCS(C)(=O)=O)CC4)cn3)nc2n(C2CCCC2)c1=O | – | – | HR+/HER2- advanced breast cancer patients | oral, dose not given, grade 3/4,, total | patients with Anemia | 4.9% |
| Nc1nc2cc(-c3ccc4ncc(C(=O)N5CCOCC5)n4c3)ccc2o1 | – | item: Diarrhea, any cause, grade ≥3 | patients with advanced solid tumours | dose not given | patients with adverse events | 4% |
| CN1CC[C@@H](c2c(O)cc(O)c3c(=O)cc(-c4ccc(C(F)(F)F)cc4Cl)oc23)[C@@H]1CO | – | item: Hypotension | relapsed or refractory haematological malignancies | oral, dose not given, all arms | patients with adverse event | 10% |
| Cc1cc(OCCOCCC(F)(F)P(=O)(O)O)ccc1CCc1cnc2c(N)nc3cc(CCC(=O)O)ccc3c2c1 | – | item: pruritus | adults with advanced solid tumours | dose not given, by treatment group, all grades | patients with non-serious AE | 4.8% |
| O=C1Nc2cc3[nH]nc(-c4ccncc4)c3cc2CN1Cc1ccccc1 | – | CTCAE v4.03 | advanced solid tumour patients | intravenous, 9.6 mg/kg, schedules 1/2 | patients with dizziness | 0% |

Excerpt of the above:
| SMILES | tested on | assay | system | setting | endpoint | value |
| --- | --- | --- | --- | --- | --- | --- |
| N#C/C(=C\c1ccc(O)cc1)C(=O)O | human coronavirus OC43 | virus-induced cell killing | MRC-5 | screen | maximum inhibition | 21.2% |
| CC(=O)c1c(C)c2cnc(Nc3ccc(C4CCN(CCS(C)(=O)=O)CC4)cn3)nc2n(C2CCCC2)c1=O | – | – | HR+/HER2- advanced breast cancer patients | oral, dose not given, grade 3/4,, total | patients with Anemia | 4.9% |
